Results pooled from the literature.
Parts stem from different laboratories: compare values within a part only. Values joined by “and” are separate records of one study, mostly repeats; a detail may differ.
UniProt Q9UKR0, sequence (whole entry, looked up): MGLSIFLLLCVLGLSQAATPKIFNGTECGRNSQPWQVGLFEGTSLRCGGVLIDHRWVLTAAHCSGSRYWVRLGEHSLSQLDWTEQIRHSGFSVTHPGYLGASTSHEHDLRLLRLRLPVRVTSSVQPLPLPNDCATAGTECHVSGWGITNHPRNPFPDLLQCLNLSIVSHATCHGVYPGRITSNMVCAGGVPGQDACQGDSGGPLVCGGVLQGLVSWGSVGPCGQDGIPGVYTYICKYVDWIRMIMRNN
UniProt P00747, sequence (whole entry, looked up): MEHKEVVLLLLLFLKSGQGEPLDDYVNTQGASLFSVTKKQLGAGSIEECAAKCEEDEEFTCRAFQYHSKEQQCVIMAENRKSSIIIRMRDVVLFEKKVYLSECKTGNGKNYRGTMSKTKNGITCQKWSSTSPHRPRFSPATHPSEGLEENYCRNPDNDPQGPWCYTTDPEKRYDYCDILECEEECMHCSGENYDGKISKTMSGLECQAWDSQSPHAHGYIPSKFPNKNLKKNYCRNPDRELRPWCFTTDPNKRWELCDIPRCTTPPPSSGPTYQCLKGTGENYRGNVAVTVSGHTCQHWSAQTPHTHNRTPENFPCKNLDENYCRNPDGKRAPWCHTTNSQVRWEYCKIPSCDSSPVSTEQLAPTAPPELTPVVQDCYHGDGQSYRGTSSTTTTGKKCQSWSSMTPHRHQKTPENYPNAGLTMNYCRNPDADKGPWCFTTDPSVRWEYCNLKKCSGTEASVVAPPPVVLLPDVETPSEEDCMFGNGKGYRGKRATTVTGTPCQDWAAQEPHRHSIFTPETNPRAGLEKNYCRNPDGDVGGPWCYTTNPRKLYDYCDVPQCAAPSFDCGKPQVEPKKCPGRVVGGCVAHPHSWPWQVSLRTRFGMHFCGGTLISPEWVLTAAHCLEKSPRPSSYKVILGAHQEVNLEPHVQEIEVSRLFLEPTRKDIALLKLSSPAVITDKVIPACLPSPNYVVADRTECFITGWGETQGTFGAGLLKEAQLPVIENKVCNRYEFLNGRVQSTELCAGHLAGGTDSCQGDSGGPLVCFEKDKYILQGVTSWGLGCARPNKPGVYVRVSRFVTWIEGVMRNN
UniProt Q9NRR2, sequence (whole entry, looked up): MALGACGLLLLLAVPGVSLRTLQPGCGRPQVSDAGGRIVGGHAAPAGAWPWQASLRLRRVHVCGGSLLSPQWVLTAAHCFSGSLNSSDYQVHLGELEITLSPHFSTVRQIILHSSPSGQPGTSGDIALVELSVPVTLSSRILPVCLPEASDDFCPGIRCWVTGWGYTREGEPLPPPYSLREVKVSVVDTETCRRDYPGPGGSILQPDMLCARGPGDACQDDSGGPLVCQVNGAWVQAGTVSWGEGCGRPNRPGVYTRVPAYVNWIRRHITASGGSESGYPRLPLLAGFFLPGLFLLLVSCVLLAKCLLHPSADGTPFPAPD
UniProt P20231, sequence (whole entry, looked up): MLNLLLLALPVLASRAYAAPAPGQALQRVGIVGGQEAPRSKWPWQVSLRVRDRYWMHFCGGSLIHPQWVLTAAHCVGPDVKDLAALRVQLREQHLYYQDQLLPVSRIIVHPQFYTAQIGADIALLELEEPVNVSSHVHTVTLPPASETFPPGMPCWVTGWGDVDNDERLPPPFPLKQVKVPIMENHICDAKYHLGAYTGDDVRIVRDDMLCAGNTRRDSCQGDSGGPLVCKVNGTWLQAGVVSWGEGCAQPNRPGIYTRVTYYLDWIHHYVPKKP
UniProt P00742, sequence (whole entry, looked up): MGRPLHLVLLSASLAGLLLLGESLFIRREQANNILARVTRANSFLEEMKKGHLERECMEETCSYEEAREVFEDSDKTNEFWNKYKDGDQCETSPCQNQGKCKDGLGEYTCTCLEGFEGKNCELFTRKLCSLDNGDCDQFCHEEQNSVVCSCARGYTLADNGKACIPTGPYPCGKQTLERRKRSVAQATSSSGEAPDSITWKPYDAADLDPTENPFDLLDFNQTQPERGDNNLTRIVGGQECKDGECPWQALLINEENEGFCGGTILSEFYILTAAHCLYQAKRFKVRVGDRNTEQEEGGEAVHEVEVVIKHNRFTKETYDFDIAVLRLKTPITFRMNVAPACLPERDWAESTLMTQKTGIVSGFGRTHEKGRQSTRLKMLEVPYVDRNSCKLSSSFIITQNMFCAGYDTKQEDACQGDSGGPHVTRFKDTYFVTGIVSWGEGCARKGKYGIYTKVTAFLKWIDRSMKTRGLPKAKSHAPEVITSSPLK

Sample 1
Cell line: HEK-293T-ACE2-TMPRSS2
Method: cell count
Concentration: concentration not given
| Structure (SMILES) | viability [%] |
| --- | --- |
| CCN(c1ccc2sc(C(=O)Nc3ccc(C)c(Cl)c3)cc2c1)S(C)(=O)=O | 78 |
| CC1=CC(C)(C)Nc2ccc(OC(=O)COc3ccccc3Cl)cc21 | 73 |
| COc1ccc(C(=O)N2CCCC2)c(OC2CCN(C3Cc4ccccc4C3)CC2)c1 | 110 |
| CCc1ccc(C(=O)N2CCCC(c3cccc(C(=O)N4CCN(c5ccccc5F)CC4)c3)C2)cc1 (centres unmarked) | 68 |
| O=C(NC1CC(=O)N(CCCc2ccccc2)C1)c1ccncc1 (centres unmarked) | 110 |
| Cc1sc2nc(CN3CCC(C)CC3)nc(-n3ccnc3)c2c1C | 68 |
| Cc1nc2ccccn2c1CC(=O)NCc1nc(-c2ccccc2)no1 | 68 |
| COc1cccc2c1C(=O)c1c(O)c3c(c(O)c1C2=O)C[C@@](O)(C(=O)CO)C[C@@H]3O[C@H]1C[C@H](N)C(O)[C@H](C)O1 (some centres unmarked) | 69 |
| COc1ccc(C(=O)/C=C/Sc2nc3ccccc3o2)cc1 | 69 |
| O=C(CC1C(=O)NCCN1Cc1ccccc1C(F)(F)F)NCCn1cccn1 (centres unmarked) | 102 |
| O=C(NCCc1csc(-c2ccccc2)n1)[C@H]1CCCN1S(=O)(=O)c1cccc2nsnc12 | 65 |
| CSC1=NNC(c2ccccn2)S1 (centres unmarked) | 67 |
| CCCCOC(=O)C1=C(N)OC2=C(C(=O)CC(C)(C)C2)C12C(=O)Nc1ccc(Br)cc12 (centres unmarked) | 94 |
| CCOC(=O)C1(CCCc2ccccc2)CCN(C(=O)c2cnsn2)CC1 | 107 |
| CN(C)c1ccc(/C=C/c2ccc3ccccc3[n+]2C)cc1 | 66 |
| O=C(Nc1nc2c(s1)CN(Cc1ccccc1)CC2)c1ccc(Cl)cc1 | 76 |
| Cc1cc(C)n(CC(C)NCC(=O)NC(C)C)n1 (centres unmarked) | 92 |
| COc1cccc(N2CCN(c3ncc4c(n3)CC(c3ccccc3O)CC4=O)CC2)c1 (centres unmarked) | 65 |
| Cc1nc(-c2cccc(Cl)c2)n(CC(=O)NCc2cccs2)c(=O)c1CCO | 84 |
| CCn1cc(CNC(=O)c2ccc3oc(-c4ccc(C(F)(F)F)cc4)nc3c2)cn1 | 78 |
| CC(=O)N1CCCSc2ccc(S(=O)(=O)N3CCC(CN4CCc5ccccc5C4)CC3)cc21 | 76 |
| CCn1cccc1-c1nc(C)c(C(=O)NCc2cc(OC)c(OC)c(OC)c2)s1 | 116 |
| CC(NCCC(c1ccccc1)c1ccco1)c1ccc(Cl)cc1 (centres unmarked) | 199 |
| CC(=O)C1=C(c2ccc(C(C)(C)C)cc2)N(C(C)=O)n2cnnc2S1 | 65 |
| CSc1cccc(NC(=O)C(=O)c2cccn2Cc2ccc(C)c(C)c2)c1 | 66 |

Sample 2
SMILES: O=C1CCC(N2Cc3c(ccc4c3OCC43CCN(Cc4ccccc4)CC3)C2=O)C(=O)N1 (centres unmarked)
Matrix: plasma
| host | route | dose | AUC(0-t) |
| --- | --- | --- | --- |
| mouse, ICR, male | intravenous | 1.0 mg/kg | 405 ng·h/mL |
| male ICR mice | intravenous | 1.0 mg/kg | 393 ng·h/mL and 428 ng·h/mL |
| male Sprague-Dawley rat | oral | 3 mg/kg | 1110 ng·h/mL |
| male CD-1 mouse | oral | 3 mg/kg | 1320 ng·h/mL |
| male Sprague Dawley rats | intravenous | 1.0 mg/kg | 776 ng·h/mL |
| male Sprague-Dawley rat | intravenous | 1 mg/kg | 753 ng·h/mL |
| male Sprague Dawley rats | oral | 3.0 mg/kg | 997 ng·h/mL |
| male CD-1 mouse | intravenous | 1 mg/kg | 408 ng·h/mL |

Sample 3
Cell line: HaCaT
Concentration: 100 µM
Time: 36 h
| SMILES | viability |
| --- | --- |
| CCCC[N+]1(C)[C@@H]2C[C@@H](OC(=O)[C@H](CO)c3ccccc3)C[C@H]1[C@@H]1O[C@@H]12 (some centres unmarked) | 96.5% |
| CCCCC(C#N)(Cn1cncn1)c1ccc(Cl)cc1 (centres unmarked) | 77.6% |
| CN1CCc2cc3c(cc2[C@H]1[C@@H]1OC(=O)c2c1ccc1c2OCO1)OCO3 | 92% |
| CCO[C@H]1O[C@@H]2O[C@@]3(C)CC[C@H]4[C@H](C)CC[C@@H]([C@H]1C)[C@@]24OO3 | 43.5% |
| CC(C)=CCOc1c2occc2cc2ccc(=O)oc12 | 24.5% |
| C[C@@H]1O[C@@H](O[C@H]2C[C@@H](O)[C@]3(CO)[C@H]4[C@H](O)C[C@]5(C)[C@@H](C6=CC(=O)OC6)CC[C@]5(O)[C@@H]4CC[C@]3(O)C2)[C@H](O)[C@H](O)[C@H]1O | 6.35% |
| Cc1cccc(C)c1N=C1NCCCS1 | 83.2% |
| C[C@]12CC[C@H]3[C@@H](CC[C@@]45O[C@@H]4C(O)=C(C#N)C[C@]35C)[C@@H]1CC[C@@H]2O | 97% |

Sample 4
SMILES: CCOC(=O)c1ccc(OC(=O)CCCCCNC(=N)N)cc1
| target | read-out | action | IC50 [nM] |
| --- | --- | --- | --- |
| PLAU (Homo sapiens, UniProt P00749) | – | – | 35.5 |
| F10 (Homo sapiens, UniProt P00742) | – | – | 2070 |
| Tryptase gamma (Homo sapiens, UniProt Q9NRR2) | – | – | 9.71 |
| trypsin | enzyme activity | inhibitor | 12.5 |
| Tryptase beta-2 (TPSB2, Homo sapiens, UniProt P20231) | – | – | 4.59 |
| Kallikrein-12 (Homo sapiens, UniProt Q9UKR0) | – | – | 45.3 |
| Plasminogen (PLG, Homo sapiens, UniProt P00747) | – | – | 228 |

Sample 5
Structure (SMILES): CC(=O)N[C@@H](Cc1c[nH]c2ccccc12)C(=O)N[C@@H](CCC(=O)C=[N+]=[N-])C(=O)OC(C)C
| host | route | dose | time | setting | relative to | body weight |
| --- | --- | --- | --- | --- | --- | --- |
| C57BL/6 CES1-/- mouse, EL4 tumour | intravenous | 1 mg/kg DON equivalent | treatment day 7 | 5 days per week | baseline | 100% |
| C57BL/6 CES1-/- mouse, EL4 tumour | intravenous | 1 mg/kg DON equivalent | treatment day 11 | 5 days per week | baseline | 91% and 88% and 93% and 100% and 90% and 105% |
| C57BL/6 CES1-/- mouse, both sexes | – | 1 mg/kg | day 10 | – | – | 100% and 105% and 97% and 90.9% and 96.6% |
| C57BL/6 CES1-/- mouse, both sexes | – | 1 mg/kg | day 18 | – | – | 84.8% and 86.2% and 104% and 87.9% and 105% and 100% |
| C57BL/6 CES1-/- mouse, EL4 tumour | intravenous | 1 mg/kg DON equivalent | treatment day 18 | 5 days per week | baseline | 90% and 100% and 110% and 89% and 96% and 92% |

For quick reference, copied from above (sample 1):
| Structure (SMILES) | viability [%] |
| --- | --- |
| CCn1cc(CNC(=O)c2ccc3oc(-c4ccc(C(F)(F)F)cc4)nc3c2)cn1 | 78 |
| CC(=O)N1CCCSc2ccc(S(=O)(=O)N3CCC(CN4CCc5ccccc5C4)CC3)cc21 | 76 |
| CCn1cccc1-c1nc(C)c(C(=O)NCc2cc(OC)c(OC)c(OC)c2)s1 | 116 |
| CC(NCCC(c1ccccc1)c1ccco1)c1ccc(Cl)cc1 (centres unmarked) | 199 |
